Results pooled from the literature.
A part holds a random share of what one study measured. Several values in a cell are separate wells, animals, samples, runs or records.
Chain of UniProt P20794 (whole entry, looked up): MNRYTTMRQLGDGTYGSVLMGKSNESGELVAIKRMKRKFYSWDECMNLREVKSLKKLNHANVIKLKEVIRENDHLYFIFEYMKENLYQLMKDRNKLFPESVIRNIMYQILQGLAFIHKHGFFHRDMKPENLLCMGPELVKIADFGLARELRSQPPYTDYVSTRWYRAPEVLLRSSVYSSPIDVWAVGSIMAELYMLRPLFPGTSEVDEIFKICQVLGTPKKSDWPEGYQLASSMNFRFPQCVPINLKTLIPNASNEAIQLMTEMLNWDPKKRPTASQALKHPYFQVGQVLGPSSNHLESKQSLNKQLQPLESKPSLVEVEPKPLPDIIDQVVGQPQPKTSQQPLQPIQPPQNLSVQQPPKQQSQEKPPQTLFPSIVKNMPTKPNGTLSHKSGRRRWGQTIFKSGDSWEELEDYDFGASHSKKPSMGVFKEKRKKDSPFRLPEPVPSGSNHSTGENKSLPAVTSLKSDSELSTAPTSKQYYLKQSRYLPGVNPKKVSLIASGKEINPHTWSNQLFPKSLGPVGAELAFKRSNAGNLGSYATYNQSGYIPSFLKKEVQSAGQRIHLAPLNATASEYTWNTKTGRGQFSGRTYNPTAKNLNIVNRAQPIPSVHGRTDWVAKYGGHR
Chain of UniProt O75385 (whole entry, looked up): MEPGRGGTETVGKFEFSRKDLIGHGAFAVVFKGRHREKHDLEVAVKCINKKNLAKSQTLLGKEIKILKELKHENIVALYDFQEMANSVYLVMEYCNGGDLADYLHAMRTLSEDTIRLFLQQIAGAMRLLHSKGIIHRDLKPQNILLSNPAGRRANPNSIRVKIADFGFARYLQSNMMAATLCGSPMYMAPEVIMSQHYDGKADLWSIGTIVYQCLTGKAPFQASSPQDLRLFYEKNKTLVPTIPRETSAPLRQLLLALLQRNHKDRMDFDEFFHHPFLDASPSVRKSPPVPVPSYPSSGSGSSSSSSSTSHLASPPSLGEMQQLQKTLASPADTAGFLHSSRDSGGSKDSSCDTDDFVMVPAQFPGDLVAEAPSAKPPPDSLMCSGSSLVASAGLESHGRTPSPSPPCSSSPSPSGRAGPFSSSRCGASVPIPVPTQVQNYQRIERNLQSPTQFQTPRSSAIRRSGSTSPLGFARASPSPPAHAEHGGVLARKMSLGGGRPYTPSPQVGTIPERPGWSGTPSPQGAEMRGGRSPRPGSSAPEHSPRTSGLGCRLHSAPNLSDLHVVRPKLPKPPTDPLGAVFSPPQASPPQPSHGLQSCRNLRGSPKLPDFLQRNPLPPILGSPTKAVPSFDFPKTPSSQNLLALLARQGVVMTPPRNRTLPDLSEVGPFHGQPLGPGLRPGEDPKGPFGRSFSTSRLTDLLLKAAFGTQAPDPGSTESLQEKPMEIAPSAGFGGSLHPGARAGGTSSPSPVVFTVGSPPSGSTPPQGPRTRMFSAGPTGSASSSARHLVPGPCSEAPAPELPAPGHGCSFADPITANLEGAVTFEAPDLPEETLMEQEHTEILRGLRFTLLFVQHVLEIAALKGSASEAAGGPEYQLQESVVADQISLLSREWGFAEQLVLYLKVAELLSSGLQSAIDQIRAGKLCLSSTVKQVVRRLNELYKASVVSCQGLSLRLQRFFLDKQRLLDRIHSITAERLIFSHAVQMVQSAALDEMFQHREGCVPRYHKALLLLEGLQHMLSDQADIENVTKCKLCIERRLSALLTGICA
Chain of UniProt Q8NE63 (whole entry, looked up): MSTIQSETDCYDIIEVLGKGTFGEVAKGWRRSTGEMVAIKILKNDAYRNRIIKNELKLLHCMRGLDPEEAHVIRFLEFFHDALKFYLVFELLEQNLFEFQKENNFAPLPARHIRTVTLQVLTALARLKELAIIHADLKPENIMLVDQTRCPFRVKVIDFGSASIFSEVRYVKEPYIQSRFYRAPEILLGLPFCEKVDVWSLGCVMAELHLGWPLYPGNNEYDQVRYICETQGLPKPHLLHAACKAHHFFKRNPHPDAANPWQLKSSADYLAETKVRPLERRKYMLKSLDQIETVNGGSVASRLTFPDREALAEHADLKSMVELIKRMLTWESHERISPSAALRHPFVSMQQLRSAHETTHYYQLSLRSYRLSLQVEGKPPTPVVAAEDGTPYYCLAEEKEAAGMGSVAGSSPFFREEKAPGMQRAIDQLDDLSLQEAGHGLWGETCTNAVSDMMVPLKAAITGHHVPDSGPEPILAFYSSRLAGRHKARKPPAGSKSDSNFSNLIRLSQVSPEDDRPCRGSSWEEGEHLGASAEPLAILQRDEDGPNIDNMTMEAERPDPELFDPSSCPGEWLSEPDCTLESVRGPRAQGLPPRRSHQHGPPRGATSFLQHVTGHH
Chain of UniProt Q9NY57 (whole entry, looked up): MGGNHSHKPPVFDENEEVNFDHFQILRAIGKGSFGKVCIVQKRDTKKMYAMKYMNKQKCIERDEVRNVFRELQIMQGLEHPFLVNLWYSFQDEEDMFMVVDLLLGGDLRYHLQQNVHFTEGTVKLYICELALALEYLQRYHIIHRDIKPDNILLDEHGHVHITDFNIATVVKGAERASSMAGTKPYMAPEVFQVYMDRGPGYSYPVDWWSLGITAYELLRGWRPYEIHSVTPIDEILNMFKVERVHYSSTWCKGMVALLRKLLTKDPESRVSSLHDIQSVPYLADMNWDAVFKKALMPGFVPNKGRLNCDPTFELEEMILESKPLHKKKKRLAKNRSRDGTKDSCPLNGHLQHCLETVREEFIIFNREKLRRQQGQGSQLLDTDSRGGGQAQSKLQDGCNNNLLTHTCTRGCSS
Chain of UniProt Q8IVW4 (whole entry, looked up): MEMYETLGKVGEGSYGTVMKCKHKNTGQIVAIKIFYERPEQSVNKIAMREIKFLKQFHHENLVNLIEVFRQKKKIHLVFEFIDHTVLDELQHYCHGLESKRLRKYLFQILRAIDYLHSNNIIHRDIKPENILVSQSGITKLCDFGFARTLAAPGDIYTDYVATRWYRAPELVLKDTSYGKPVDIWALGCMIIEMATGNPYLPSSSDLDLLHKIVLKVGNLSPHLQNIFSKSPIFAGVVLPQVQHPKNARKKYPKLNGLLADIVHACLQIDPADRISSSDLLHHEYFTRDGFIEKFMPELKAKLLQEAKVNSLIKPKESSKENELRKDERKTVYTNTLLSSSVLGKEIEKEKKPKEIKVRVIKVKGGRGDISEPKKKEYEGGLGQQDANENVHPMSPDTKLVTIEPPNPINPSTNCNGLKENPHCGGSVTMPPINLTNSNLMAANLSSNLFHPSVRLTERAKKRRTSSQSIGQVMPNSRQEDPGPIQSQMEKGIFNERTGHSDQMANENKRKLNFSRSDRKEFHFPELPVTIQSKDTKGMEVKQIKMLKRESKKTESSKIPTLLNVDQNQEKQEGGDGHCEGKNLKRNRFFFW
Chain of UniProt Q8IU85 (whole entry, looked up): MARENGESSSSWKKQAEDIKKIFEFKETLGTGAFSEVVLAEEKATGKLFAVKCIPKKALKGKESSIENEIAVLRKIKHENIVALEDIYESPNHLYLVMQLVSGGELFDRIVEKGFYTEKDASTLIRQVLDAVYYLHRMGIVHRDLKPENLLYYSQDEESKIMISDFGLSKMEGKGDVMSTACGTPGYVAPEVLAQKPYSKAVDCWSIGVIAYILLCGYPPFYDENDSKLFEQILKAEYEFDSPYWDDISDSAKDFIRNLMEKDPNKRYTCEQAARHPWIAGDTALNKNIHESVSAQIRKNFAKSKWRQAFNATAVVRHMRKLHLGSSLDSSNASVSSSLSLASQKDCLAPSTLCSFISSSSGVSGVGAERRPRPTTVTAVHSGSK

Series 1
Target: Dual specificity mitogen-activated protein kinase kinase 2 (MAP2K2, Homo sapiens, UniProt P36507)
Chain of UniProt P36507 (whole entry, looked up): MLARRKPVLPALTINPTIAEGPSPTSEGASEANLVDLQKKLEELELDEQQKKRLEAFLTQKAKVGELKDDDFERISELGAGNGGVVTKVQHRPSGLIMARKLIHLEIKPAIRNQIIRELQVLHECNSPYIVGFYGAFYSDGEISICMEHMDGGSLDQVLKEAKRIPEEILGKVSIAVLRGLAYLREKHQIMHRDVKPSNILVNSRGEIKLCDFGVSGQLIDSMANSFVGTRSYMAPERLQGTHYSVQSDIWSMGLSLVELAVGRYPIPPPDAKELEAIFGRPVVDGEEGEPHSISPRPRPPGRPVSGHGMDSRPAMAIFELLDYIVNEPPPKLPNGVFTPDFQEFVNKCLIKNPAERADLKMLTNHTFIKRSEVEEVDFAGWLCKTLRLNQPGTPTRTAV
Observed: enzyme activity
Mode: inhibitor
Concentration: 0.5 µM
Relative to: control
Quantity: remaining activity
CO[C@H]1C[C@@H]2CC[C@@H](C)[C@@](O)(O2)C(=O)C(=O)N2CCCC[C@H]2C(=O)O[C@H]([C@H](C)C[C@@H]2CC[C@@H](O)[C@H](OC)C2)CC(=O)[C@H](C)/C=C(\C)[C@@H](O)[C@@H](OC)C(=O)[C@H](C)C[C@H](C)/C=C/C=C/C=C/1C: 103%
O=c1c2ccccc2[nH]c(=S)n1CCN1CCC(=C(c2ccc(F)cc2)c2ccc(F)cc2)CC1: 101%
NCCNc1ncc(C(N)=O)c(Nc2cccc(C(F)(F)F)c2)n1: 103%
O=C(CCCc1ccc(-c2ccccc2F)cc1)Nc1ccc(O)cc1: 95.1%
Nc1ncnc2n[nH]c(Nc3ccc(F)cc3)c12: 90%
O=C1NC(=O)C(c2cn(CCCn3ccnc3)c3ccccc23)=C1Nc1ccccc1: 102%
Cc1ccc(Nc2nccc(N(C)c3ccc4c(C)n(C)nc4c3)n2)cc1S(N)(=O)=O: 94.8%
Cc1cccc(-c2[nH]c(C(C)(C)C)nc2-c2ccc3c(c2)OCO3)n1: 108%
Nc1[nH]nc2nc3ccccc3nc12: 104%
O=S(=O)(c1cccc2cnccc12)N1CCCNCC1: 117%
CCOC(=O)c1c(C)[nH]c(/C=C2\C(=O)Nc3ccccc32)c1C: 102%
O=C(O)c1ccc2c3c1cccc3c(=O)n1c3ccccc3nc21: 105%
CN(C)c1ccc(C=C2C(=O)Nc3ccccc32)cc1: 99.4%
CC(C)[C@H](CO)Nc1nc(Nc2cc(N)cc(Cl)c2)c2ncn(C(C)C)c2n1: 87.5%
O=C1NC(=O)C(c2cn(CCCO)c3ncccc23)=C1c1cnccn1: 90.3%

Series 2
Target: Calcium/calmodulin-dependent protein kinase type II subunit alpha (CAMK2A, Homo sapiens, UniProt Q9UQM7)
Chain of UniProt Q9UQM7 (whole entry, looked up): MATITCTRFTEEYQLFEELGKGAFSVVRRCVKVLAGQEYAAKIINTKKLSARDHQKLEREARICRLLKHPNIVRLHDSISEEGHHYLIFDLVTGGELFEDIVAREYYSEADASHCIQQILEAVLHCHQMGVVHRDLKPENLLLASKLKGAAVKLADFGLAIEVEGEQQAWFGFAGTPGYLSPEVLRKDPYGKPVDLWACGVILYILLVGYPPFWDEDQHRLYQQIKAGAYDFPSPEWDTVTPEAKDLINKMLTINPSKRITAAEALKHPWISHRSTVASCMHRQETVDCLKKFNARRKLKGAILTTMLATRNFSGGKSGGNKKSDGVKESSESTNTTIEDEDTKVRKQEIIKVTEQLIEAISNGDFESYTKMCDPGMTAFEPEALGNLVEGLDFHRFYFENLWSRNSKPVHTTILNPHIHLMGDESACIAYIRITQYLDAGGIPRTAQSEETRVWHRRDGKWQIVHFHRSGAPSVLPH
Observed: enzyme activity
Mode: inhibitor
Concentration: 10 µM
Quantity: inhibition
C[C@@H]1O[C@@H](O[C@H]2[C@H](O)[C@@H](O)[C@H](O[C@H]3CC[C@]4(C)[C@H]5CC=C6[C@@H]7CC(C)(C)CC[C@]7(CO)[C@@H](O)C[C@@]6(C)[C@]5(C)CC[C@H]4C3(C)C)O[C@@H]2CO[C@@H]2O[C@H](CO)[C@@H](O)[C@H](O)[C@H]2O)[C@H](O)[C@H](O)[C@H]1O: -16%
O=c1c(-c2ccc(O[C@@H]3O[C@H](CO)[C@@H](O)[C@H](O)[C@H]3O)cc2)coc2cc(O)cc(O)c12: -7%
N[C@@H](CS(=O)O)C(=O)O: -3%
CCC(=O)O[C@]1(C(=O)SCF)[C@H](C)C[C@H]2[C@@H]3C[C@H](F)C4=CC(=O)C=C[C@]4(C)[C@@]3(F)[C@@H](O)C[C@@]21C: -6%
CN(C)CCOC(C)(c1ccccc1)c1ccc(Cl)cc1 (stereo not shown): -6%
CC(=O)c1ccc(O)c(C(=O)O)c1: 1%

Series 3
Cell line: mouse MPNST tumor cells
Technique: high-content nuclear imaging
Measured: cell number
Concentration: 10 µM
Time: 12 h
Setting: mean of 2 replicates
Relative to: plate mean
Direction: higher = more cells
Quantity: nuclei count
NS(=O)(=O)c1nn2cc(-c3ccccc3)nc2s1: -3.27 z-score
O=c1oc2ccccc2c(O)c1Cc1c(O)c2ccccc2oc1=O: 0.127 z-score
Cc1cc(=O)n(C)c2cc(N3C(=O)CC[C@@H](NS(=O)(=O)CC(C)C)[C@@H]3c3ccc(Cl)cc3)ccc12: 1.52 z-score
O=S(=O)(O)CCS: 2.23 z-score
NC[C@H]1O[C@H](O[C@H]2[C@H](O[C@@H]3O[C@H](CO)[C@@H](O)[C@H]3O)[C@@H](O)[C@H](N)C[C@@H]2N)[C@H](N)[C@@H](O)[C@@H]1O: 0.195 z-score
CN(C/C=C/c1ccccc1)Cc1cccc2ccccc12: 1.58 z-score
O=C(NCCN1CCOCC1)c1ccc(Cl)cc1: -0.326 z-score and 0.999 z-score
CC(=O)NS(=O)(=O)c1ccc(N)cc1: 0.27 z-score

Series 4
Structure (SMILES): CN([C@@H]1CCc2c(CC(=O)O)c3ccccc3n2C1)S(=O)(=O)c1ccc(F)cc1
Technique: competition with immobilised ligand
Concentration: 1 µM
Quantity: remaining binding
MAK (Homo sapiens, UniProt P20794); cell-free assay: 82%
HIPK4 (Homo sapiens, UniProt Q8NE63); cell-free assay: 100%
Tyrosine-protein kinase ABL1, non-phosphorylated (ABL1, Homo sapiens, UniProt P00519, F317I); binding: 79%
CDKL3 (Homo sapiens, UniProt Q8IVW4); cell-free assay: 85%
CAMK1D (Homo sapiens, UniProt Q8IU85); cell-free assay: 100%
STK32B (Homo sapiens, UniProt Q9NY57); cell-free assay: 100%
ULK1 (Homo sapiens, UniProt O75385); cell-free assay: 96%
Tyrosine-protein kinase ABL1, phosphorylated (ABL1, Homo sapiens, UniProt P00519, H396P); cell-free assay: 100%

Excerpt of the above (series 4):
MAK (Homo sapiens, UniProt P20794); cell-free assay: 82%
HIPK4 (Homo sapiens, UniProt Q8NE63); cell-free assay: 100%
Tyrosine-protein kinase ABL1, non-phosphorylated (ABL1, Homo sapiens, UniProt P00519, F317I); binding: 79%
Tyrosine-protein kinase ABL1, phosphorylated (ABL1, Homo sapiens, UniProt P00519, H396P); cell-free assay: 100%
